Measured values from different studies.
Compare with care: the assays were run in different laboratories. ± gives the spread as reported.

Compound | cell line | test | conditions | IC50
COc1ccc2cc([C@H](C)C(=O)[O][Pt]([NH2])([NH2])([Cl])([Cl])[O]C(=O)[C@@H](C)c3ccc4cc(OC)ccc4c3)ccc2c1 | CT26 | cell growth, MTT | 48 h | 0.32 ± 0.07 µM
N=C(N/N=C/c1cc2ccccc2c2ccccc12)N/N=C/c1cc2ccccc2c2ccccc12 | hTERT-HPNE | cell growth, crystal violet | 72 h | 131 ± 10.4 µM
O=C(/C=C/c1cccc(S(=O)(=O)NCc2ccccc2)c1)NO | MOPC-315 | cell growth | 24 h | 0.291 ± 0.044 µM
C=CC(=O)Nc1cc(Nc2nccc(-c3c(-c4cccc(-c5ccccc5)c4)n(C)c4ccccc34)n2)c(OC)cc1N(C)CCN(C)C | NCI-H1975 | cell growth or viability, MTT | 72 h | 0.139 µM
C=C1[C@@H]([C@@]2(C)C=CC(=O)C(C)(C)[C@@H]2CC(=O)OC)[C@@H](OC(C)=O)[C@H](OC(C)=O)[C@@]2(C)[C@H](c3ccoc3)C[C@H]3O[C@]132 | HEp-2 | cell growth or viability, MTT | 48 h | 68.1 µM
O=C(OCc1ccc(F)cc1)N(Cc1cccc(CN2CCCCC2)c1)[c-]1cccc1.[Fe+2].c1cc[cH-]c1 | BL2 | cell growth or viability, MTT | 48 h | 3.3 µM
c1ccc(-c2cc(-c3ccc(-n4cc(-c5ccc6sc7ccccc7c6c5)nn4)cc3)cc(-c3ccccn3)n2)nc1 | NHDF normal human fibroblasts | cytotoxicity, MTS | 72 h | > 25 µM
Cc1ccc(NC(=O)N/N=C2\CC3(CCN(C)CC3)Oc3ccccc32)cc1 | MCF7, HCT-116, PC-3, A549 | cell growth, MTT | range over cell lines | 1.15 to 29.4 µM
CC(C)(CCCC/C=C/CCCCCC(C)(C)C(=O)O)C(=O)O | mouse primary hepatocytes | cholesterol synthesis, inhibitor | 4 h, added: [1,2-14C]acetate incorporation | 1.82 ± 1.89 µM
Clc1ccc(C=[N+]2N=C(Nc3ccccc3)[S][Pt-]2([Cl])[Cl])s1 | HEL human lung fibroblasts | cell proliferation | – | 26.2 µM
CCN1CCC2(CC1)C/C(=N\NC(=O)Nc1ccc(C)cc1)c1ccccc1O2 | MCF7, HCT-116, PC-3, A549 | cell growth, MTT | range over cell lines | 5.47 to 39 µM
N#C/C(=C\c1cn(-c2ccccc2)nc1-c1ccc(Cl)cc1)c1nc2ccccc2[nH]1 | ASPC1 | cell growth or viability, ATP luminescence | 72 h | > 100 µM
S=C(N/N=C/c1ccc(-c2ccccc2)s1)Nc1ccccc1 | HEL human lung fibroblasts | cell growth | – | 32.1 µM
COc1ccc(-c2cc(=O)c3c(O)cc(O[C@@H]4O[C@H](CO)[C@@H](O)[C@H](O)[C@H]4O)cc3o2)cc1OC | MDA-MB-231/BCRP BCRP-transfected, multidrug-resistant | cytotoxicity, resazurin reduction | 72 h | > 100 µM
Cl.[Cl][Ru-4]123([n+]4ccccc4-c4cc(-c5ccccc5)cc([n+]41)-c1cccc[n+]12)[n+]1ccc(-c2ccccc2)c2ccc4c(-c5ccccc5)cc[n+]3c4c21 | HEL 299 | cell growth or viability, resazurin | 72 h | 7.56 µM
COc1cc(OC)cc(C2=C3C(C)=C(I)C(C)=[N+]3[B-](F)(F)n3c(/C=C/c4cccs4)c(I)c(C)c32)c1 | HEp-2 | cell growth or viability, resazurin | 24 h, dark | > 400 µM
CCCCCCCCCCCCCCOc1c(O)cc(C(=O)O[C@@H]2Cc3c(O)cc(O)cc3O[C@@H]2c2cc(O)c(O)c(O)c2)cc1O | U-87 MG | cell viability, CCK-8 | 24 h | 26.07 ± 0.08 µM
CC(=O)Oc1ccc(/C=C/C(=O)Nc2nc(=O)n([C@@H]3O[C@H](C)[C@@H](OC(C)=O)[C@H]3OC(C)=O)cc2F)cc1OC(C)=O | ASPC1 | cell growth or viability, MTT | 72 h | 90.1 µM
Cc1cnn2ccc(-c3ccc4c(c3)CN([C@H]3CCC(=O)NC3=O)C4=O)nc12 | MOLM-13 | cell growth, CellTiter luminescence | 72 h | 0.032 µM
N[C@@H](CNC(=O)c1ccc2[nH]c(C(=O)c3ccc(O)cc3)nc2c1)C(=O)O | SNU-1 (KRAS G12D) | cell viability, CellTiter-Glo | 72 h | > 300 µM
C(=C/c1ccccc1)/c1ccccc1 | THP-1 | cell growth or viability, ATP luminescence | 24 h | 45 µM
Cc1ccc(C(C)C)cc1.Cc1ncc(CO)c(C=NNC2=Nc3ccccc3-c3[nH]c4ccc(Br)cc4c3C2)c1O.[Cl-].[Cl][Ru+] | NCI-N87 | cytotoxicity, MTT | 96 h | 2.5 ± 0.7 µM

Compound | cell line | test | conditions | IC50
COC(=O)[C@H]1[C@H]2C[C@H]3O[C@@]4(CCN3C[C@H]2C[C@@H](OC(=O)c2cc(OC)c(OC)c(OC)c2)[C@@H]1OC)C(=O)Nc1cc(OC)c(-c2ccc(C)cc2)cc14 | NALM-6 | cell growth or viability, trypan blue | 72 h | 2.38 µM
Cc1cc(C#N)cc(C)c1Oc1cc(Nc2ccc(C#N)cc2)nc2ccncc12 | S102 | – | 48 h | > 128 µM
CSc1nc(Nc2cccc(/C(C)=N/NC(=O)c3cccc(Cl)c3)c2)c(C#N)c(-c2ccccc2)n1 | HCT-116 and MCF7 | cell growth, MTT | range over compound group | 9.25 to 15.3 µM
O=C(CCCN1C(=O)c2cccc3cccc(c23)C1=O)NO | HCT-8 | cytotoxicity | 48 h | 87.1 ± 2.5 µM
CC1=C2[O][Ru-]([Cl])[O+]=C2C=CN1CCCCCCCCCCCCN1C=CC2=[O+][Ru-]([Cl])[O]C2=C1C.Cc1ccc(C(C)C)cc1.Cc1ccc(C(C)C)cc1 | A-427 | cell growth or viability, crystal violet | 96 h | 10.4 µM
CSc1nc(Nc2cccc(/C(C)=N/NC(=O)c3ccc([N+](=O)[O-])cc3)c2)c(C#N)c(-c2ccccc2)n1 | HCT-116 and MCF7 | cell growth, MTT | range over compound group | 1.14 to 10.3 µM
CSCCC(NC(C)=O)C(=O)O.[Ru+2].c1ccc(-c2cccc(-c3ccccn3)n2)nc1.c1ccc(-c2ccccn2)nc1 | HL-60 | cell growth or viability | dark | > 100 µM
Cc1cc(O)cc2c1O[C@](C)(CCC[C@H](C)CCC[C@H](C)CCCC(C)C)CC2 | SK-MEL-24 | cell growth or viability, MTT | 24 h | 5.57 µM
CC(C)C1OC(=O)C(NC(=O)c2cccc(O)c2)C(C)OC(=O)C(C(C)C)OC(=O)C(C)(C)C(=O)C(Cc2ccccc2)OC1=O (centres unmarked) | HCT-8 | cell viability, CCK-8 | 72 h | > 20 µM
N=C(N/N=C/c1cc2ccccc2[nH]1)N/N=C/c1cc2ccccc2[nH]1 | hTERT-HPNE | cell growth, crystal violet | 72 h | 8.8 ± 0.8 µM
Cc1ccc(Nc2ccn3ncc(-c4ccc5c(c4)CN([C@H]4CCC(=O)NC4=O)C5=O)c3n2)cc1Cl | MOLM-13 | cell growth, CellTiter luminescence | 72 h | > 0.1 µM
COCCOCCOCCOc1ccc(/C=C/c2c(I)c(C)c3n2[B-](F)(F)[N+]2=C(C)C(I)=C(C)C2=C3c2cc(OC)cc(OC)c2)cc1 | HEp-2 | phototoxicity, CellTiter-Blue | added: light 1.5 J/cm^2 | 3.8 µM
CCCCCCN(CCCCCC)C1=[S+][Au-2]2([S]1)[c]1ccccc1-c1cccc[n+]12.F[P-](F)(F)(F)(F)F (centres unmarked) | UWB1289 | cell growth or viability, MTT | 72 h | 2.81 µM
CN1CCC(N[C@@H]2CCc3[nH]c4c(C(N)=O)ccc(-c5ccccc5Cl)c4c3C2)CC1 | colorectal cancer organoid sample E | cell growth, CellTiter-Glo | 6 days | 0.0083 µM
C=CC(=O)N1CC=C(c2c(-c3ccc(Oc4cccc(C)n4)cc3)c3c(N)ncnc3n2C)C1 | JMSU-1 | cell growth or viability, ATP luminescence | 96 h | 0.37 µM
N=C(N/N=C/c1ccc[nH]1)N/N=C/c1ccc[nH]1 | hTERT-HPNE | cell growth, crystal violet | 72 h | 74.3 ± 7.4 µM
O=C(/C=C/c1cccc(S(=O)(=O)NC2CCCCC2)c1)NO | MOPC-315 | cell growth | 24 h | 0.444 ± 0.181 µM
COc1ccc([C@@H]2CC(=O)c3c(O)cc(O[C@@H]4O[C@H](CO[C@@H]5O[C@@H](C)[C@H](O)[C@@H](O)[C@H]5O)[C@@H](O)[C@H](O)[C@H]4O)cc3O2)cc1O | MRC5 | cell growth or viability, MTS | 72 h | 138 µg/mL
Cc1ccc(CNC(=O)C(CCc2ccccc2)NC(=O)C(NC(=O)c2ccc(OCc3ccc(C(C)(C)C)cc3)cc2)C(C)O)cc1 (centres unmarked) | WSUDLCL2 | proteasome β5 activity, inhibitor, Proteasome-Glo β5 | 1 h | 0.32 ± 0.12 µM
CC(C)=CCc1c2c(c(O)c3c(=O)c(-c4ccc(O)cc4)coc13)C=CC(C)(C)O2 | KKU100 | cell growth or viability, MTT | 24 h | 21.6 µM
CC(C)=CCc1c(O)cc2oc3cc(O)c(O)c(CC=C(C)C)c3c(=O)c2c1O | BEAS-2B | cell growth or viability | – | 7.43 µM
CC(=O)O[C@@H]1C[C@H]2C(C)(C)[C@H](O)CC[C@]2(C)[C@H]2CC[C@]34C[C@]3(CC[C@H]4[C@@H](C)C[C@@H](O)[C@H](O)C(C)(C)O)[C@@]21C | SCM-1 | cytotoxicity, MTT | – | 20 ± 4.9 µM

Repeated from above:
Compound | cell line | test | conditions | IC50
COC(=O)[C@H]1[C@H]2C[C@H]3O[C@@]4(CCN3C[C@H]2C[C@@H](OC(=O)c2cc(OC)c(OC)c(OC)c2)[C@@H]1OC)C(=O)Nc1cc(OC)c(-c2ccc(C)cc2)cc14 | NALM-6 | cell growth or viability, trypan blue | 72 h | 2.38 µM
N#C/C(=C\c1cn(-c2ccccc2)nc1-c1ccc(Cl)cc1)c1nc2ccccc2[nH]1 | ASPC1 | cell growth or viability, ATP luminescence | 72 h | > 100 µM
N=C(N/N=C/c1cc2ccccc2c2ccccc12)N/N=C/c1cc2ccccc2c2ccccc12 | hTERT-HPNE | cell growth, crystal violet | 72 h | 131 ± 10.4 µM
C=CC(=O)Nc1cc(Nc2nccc(-c3c(-c4cccc(-c5ccccc5)c4)n(C)c4ccccc34)n2)c(OC)cc1N(C)CCN(C)C | NCI-H1975 | cell growth or viability, MTT | 72 h | 0.139 µM
N=C(N/N=C/c1ccc[nH]1)N/N=C/c1ccc[nH]1 | hTERT-HPNE | cell growth, crystal violet | 72 h | 74.3 ± 7.4 µM
C(=C/c1ccccc1)/c1ccccc1 | THP-1 | cell growth or viability, ATP luminescence | 24 h | 45 µM
N=C(N/N=C/c1cc2ccccc2[nH]1)N/N=C/c1cc2ccccc2[nH]1 | hTERT-HPNE | cell growth, crystal violet | 72 h | 8.8 ± 0.8 µM
